Measurements pooled from the literature.
Protocols differ between the studies behind these lines. Values joined by “and” are separate records of one study, mostly repeats; a detail may differ. ± marks the error that the study gave.
GLP1R: Glucagon-like peptide 1 receptor (GLP1R, Homo sapiens, UniProt P43220)
Sequence of UniProt P04629 (whole entry, looked up): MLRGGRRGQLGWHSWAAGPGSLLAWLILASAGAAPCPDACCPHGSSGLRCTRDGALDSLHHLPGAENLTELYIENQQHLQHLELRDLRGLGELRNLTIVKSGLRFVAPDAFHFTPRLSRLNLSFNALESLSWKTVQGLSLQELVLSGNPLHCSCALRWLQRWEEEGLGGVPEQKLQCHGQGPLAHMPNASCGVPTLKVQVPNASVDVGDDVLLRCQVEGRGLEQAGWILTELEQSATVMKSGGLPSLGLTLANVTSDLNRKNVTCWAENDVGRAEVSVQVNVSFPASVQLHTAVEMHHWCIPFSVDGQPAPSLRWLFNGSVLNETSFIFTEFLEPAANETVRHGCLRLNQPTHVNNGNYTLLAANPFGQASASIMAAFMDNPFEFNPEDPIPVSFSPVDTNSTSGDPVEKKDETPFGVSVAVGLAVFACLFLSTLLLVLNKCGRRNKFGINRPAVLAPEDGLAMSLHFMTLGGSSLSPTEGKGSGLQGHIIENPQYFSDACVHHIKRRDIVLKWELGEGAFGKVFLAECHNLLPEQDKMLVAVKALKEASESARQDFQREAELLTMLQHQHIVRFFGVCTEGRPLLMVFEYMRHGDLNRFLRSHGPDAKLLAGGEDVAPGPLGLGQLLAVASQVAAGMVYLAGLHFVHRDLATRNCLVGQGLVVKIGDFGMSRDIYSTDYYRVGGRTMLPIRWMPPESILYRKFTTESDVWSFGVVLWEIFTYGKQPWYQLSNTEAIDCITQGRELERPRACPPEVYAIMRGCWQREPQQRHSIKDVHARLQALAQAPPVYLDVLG

| Compound | target or system | test | test system | conditions | how to read | quantity | result |
| --- | --- | --- | --- | --- | --- | --- | --- |
| CC(C)[C@@H]1NC(=O)[C@H](Cc2ccccc2)NC(=O)[C@@H]2NC(=O)[C@H](Cc3ccccc3)NC(=O)[C@@H]3CCCN3C(=O)CNC(=O)[C@H](Cc3ccccc3)NC(=O)[C@@H]3CNCCCC[C@@H](C(=O)O)NC(=O)[C@@H]4NC(=O)[C@H](CC(N)=O)NC(=O)CNC(=O)[C@H]([C@@H](O)C(=O)O)NC(=O)[C@H](CSC[C@@H](NC(=O)[C@H](CCC(N)=O)NC(=O)[C@H](CCCCNC(=O)c5ccc(NN)nc5)NC(=O)[C@@H](N)CS[C@H]4C)C(=O)N[C@@H](CS[C@H]2C)C(=O)N3)NC1=O [technetium-99m labelled] |  |  | rat ischemia-reperfusion, heart | saline, 2 h reperfusion | relative to: infarct over normal myocardium | tissue radioactivity ratio | 27.3 ± 4.62 |
| O=C1N(Cc2ccccc2Cl)c2ccccc2C12NN=C(c1ccccc1)S2 (stereo not drawn) | MDA-MB-468 | gene expression array, refers to: HILPDA mRNA |  | 10 µM, 12 h | relative to: untreated, up | fold change | 1.79 |
| COc1cc(CCC[P+](c2ccccc2)(c2ccccc2)c2ccccc2)c(OC)c2c1OCO2.[I-] | SF-539 | SRB |  |  |  | GI50 | -5.64 log M |
| C[C@H]1CN(c2n[nH]c3nc(N[C@H]4CC[C@H](NS(=O)(=O)CCC(F)(F)F)CC4)ncc23)CCO1 | High affinity nerve growth factor receptor (NTRK1, Homo sapiens, UniProt P04629) | inhibitor, Kinobeads competition profiling |  | 0.032 µM | relative to: vehicle | relative abundance | 1.01 |
| C=C(C)[C@H]1CN[C@H](C(=O)O)[C@H]1CC(=O)O | hiPSC glutamatergic neurons | network burst frequency, multi-electrode array |  | 2 h |  | lowest effective concentration | 1 µM |
| C[C@H]1O[C@@H](O[C@H]2[C@@H](O)C[C@H](O[C@H]3[C@@H](O)C[C@H](O[C@H]4CC[C@@]5(C)[C@H](CC[C@@H]6[C@@H]5C[C@@H](O)[C@]5(C)[C@@H](C7=CC(=O)OC7)CC[C@]65O)C4)O[C@@H]3C)O[C@@H]2C)C[C@H](O)[C@@H]1O | ReNcell VM neural progenitor cells | atomic force microscopy |  | 0.56 µM |  | apparent membrane tension | 0.5 nN/µm |
| O=c1cc(-c2ccc(O)cc2)oc2cc(O)cc(O)c12 | SH-SY5Y Aβ-GFP cells, scrambled shRNA |  |  | 5 µM |  | neurite branch number | 1.8 to 2.1 |
| Nc1ncc(-c2nc(N3CCOCC3)nc(N3CCOCC3)n2)c(C(F)F)n1 | BXPC-3 |  |  | 72 h |  | GI50 | 97 nM |
| CC[C@H](C)[C@H](NC(=O)[C@H](Cc1ccccc1)NC(=O)[C@H](CCC(=O)O)NC(=O)[C@H](CCCNC(=N)N)NC(=O)[C@H](C)NC(=O)[C@H](C)NC(=O)[C@H](CCC(N)=O)NC(=O)[C@H](CCC(=O)O)NC(=O)[C@H](CCC(=O)O)NC(=O)[C@H](CC(C)C)NC(=O)[C@H](Cc1ccc(O)cc1)NC(=O)[C@H](CO)NC(=O)[C@H](CO)NC(=O)[C@H](CCCCNc1c(NCCCCCN(O)C(=O)CCC(=O)NCCCCCN(O)C(=O)CCC(=O)NCCCCCN(O)C(C)=O)c(=O)c1=O)NC(=O)[C@H](CC(=O)O)NC(=O)[C@H](CO)NC(=O)[C@@H](NC(=O)[C@H](Cc1ccccc1)NC(=O)[C@@H](NC(=O)CNC(=O)[C@H](CCC(=O)O)NC(=O)[C@H](C)NC(=O)CCc1cnc[nH]1)[C@@H](C)O)[C@@H](C)O)C(=O)N[C@@H](C)C(=O)N[C@@H](Cc1c[nH]c2ccccc12)C(=O)N[C@@H](CC(C)C)C(=O)N[C@H](C(=O)N[C@@H](CCCNC(=N)N)C(=O)NCC(=O)N[C@@H](CCCNC(=N)N)C(=O)N[C@@H](CCCCNC(=O)COCCOCCNC(=O)COCCOCCNC(=O)CC[C@H](NC(=O)CCCCCCCCCCCCCCCCC(=O)O)C(=O)O)C(=O)NCC(=O)NCC(=O)N[C@@H](CO)C(=O)N[C@@H](CCCCNc1c(NCCCCCN(O)C(=O)CCC(=O)NCCCCCN(O)C(=O)CCC(=O)NCCCCCN(O)C(C)=O)c(=O)c1=O)C(=O)O)C(C)C | GLP1R | cAMP reporter gene, agonist, CRE luciferase | BHK | with Zr, 0% HSA |  | EC50 | 0.055 nM |
| CC[C@H](C)[C@@H]1NC(=O)[C@@H]2CCCN2C(=O)[C@H](CC(C)C)NC(=O)[C@H](CC(C)C)NC(=O)CNC(=O)[C@@H](NC(=O)[C@@H](NC(=O)[C@H](CC(=O)O)NC(=O)CNC(=O)[C@@H](NC(=O)[C@H](C)NC(=O)CNC(=O)[C@H](CCCCN)NC(=O)[C@H](CC(C)C)NC(=O)[C@H](CC(C)C)NC(=O)[C@H](CCCCN)NC(=O)CNC(=O)[C@@H](NC(=O)[C@@H](N)CC(C)C)C(C)C)C(C)C)C(C)C)CSSC[C@@H](C(=O)O)NC1=O |  | RNA-seq, refers to: Tnfaip2 | mouse, traumatic brain injury model, frontal cortex and hippocampus | dose not given | relative to: TBI alone | log2 fold change | -2.72 |
| NCCOCC(=O)N1CCCC(C(=O)NCc2nc(-c3ccc(-c4ccc(F)cc4)cc3)cs2)C1 (stereo not drawn) | Jurkat | cytotoxicity |  |  |  | EC50 | ~10000 nM |
| COc1c(C)c2c(c(O)c1C/C=C(\C)CCC(=O)O)C(=O)OC2 | BXPC-3 | cell proliferation | pancreas cancer |  |  | IC50 | 2950 nM |
| CCN(CC)c1ccc(C=NNC(=O)CSc2nc3ccccc3c(=O)n2Cc2ccc(S(N)(=O)=O)cc2)c(O)c1 | SF-268 | NCI five-dose screen |  |  |  | CC50 | > 100000 nM |
| O=S(=O)(c1ccc(O)cc1)c1ccc(O)cc1 | HepG2 spheroids | flow cytometry |  | concentration not given, 24 h |  | cell cycle distribution | no effect |
| CC[C@H](C)[C@H](NC(=O)[C@H](Cc1ccccc1)NC(=O)[C@H](CCC(=O)O)NC(=O)[C@H](CCCNC(=N)N)NC(=O)[C@H](C)NC(=O)[C@H](C)NC(=O)[C@H](CCC(N)=O)NC(=O)[C@H](CCCCNc1c(NCCCCCN(O)C(=O)CCC(=O)NCCCCCN(O)C(=O)CCC(=O)NCCCCCN(O)C(C)=O)c(=O)c1=O)NC(=O)[C@H](CCC(=O)O)NC(=O)[C@H](CC(C)C)NC(=O)[C@H](Cc1ccc(O)cc1)NC(=O)[C@H](CO)NC(=O)[C@H](CO)NC(=O)[C@@H](NC(=O)[C@H](CC(=O)O)NC(=O)[C@H](CO)NC(=O)[C@@H](NC(=O)[C@H](Cc1ccccc1)NC(=O)[C@@H](NC(=O)CNC(=O)[C@H](CCC(=O)O)NC(=O)[C@H](C)NC(=O)CCc1cnc[nH]1)[C@@H](C)O)[C@@H](C)O)C(C)C)C(=O)N[C@@H](C)C(=O)N[C@@H](Cc1c[nH]c2ccccc12)C(=O)N[C@@H](CC(C)C)C(=O)N[C@H](C(=O)N[C@@H](CCCCNc1c(NCCCCCN(O)C(=O)CCC(=O)NCCCCCN(O)C(=O)CCC(=O)NCCCCCN(O)C(C)=O)c(=O)c1=O)C(=O)NCC(=O)N[C@@H](CCCNC(=N)N)C(=O)N[C@@H](CCCCNC(=O)COCCOCCNC(=O)COCCOCCNC(=O)CC[C@H](NC(=O)CCCCCCCCCCCCCCCCC(=O)O)C(=O)O)C(=O)O)C(C)C | GLP1R | cAMP reporter gene, agonist, CRE luciferase | BHK | without Zr, 1% HSA |  | EC50 | 1.7 nM |
| C[C@@H](O)[C@H](NC(=O)[C@@H]1CSSC[C@H](NC(=O)[C@@H](Cc2ccccc2)NC(=O)CN2CCN(CC(=O)[O-])CCN(CC(=O)[O-])CCN(CC(=O)[O-])CC2)C(=O)N[C@@H](Cc2ccc(O)cc2)C(=O)N[C@H](Cc2c[nH]c3ccccc23)C(=O)N[C@@H](CCCCN)C(=O)N[C@@H]([C@@H](C)O)C(=O)N1)C(=O)O.[177Lu+3] | MEC1 |  |  | 60 min, 37 °C |  | cell uptake | 1.34% |
| COC(=O)/C(C)=C\C[C@@]12OC(C)(C)[C@@H]3C[C@@H](C=C4C(=O)c5c(O)c6c(c(CC=C(C)C)c5O[C@]431)O[C@](C)(CCC=C(C)C)C=C6)C2=O | MYBPC3 iPSC cardiomyocytes | plate-normalised |  | concentration not given, 24 h, hit retest |  | MyBP-C level | 0.4% |
| CN1CC[C@]2(C)c3cc(OC(=O)Nc4ccccc4)ccc3N(C)[C@H]12 | mouse primary cortical neurons |  |  | up to 1 µM |  | APP protein decrease | ≤ 70% |
| Cn1cncc1C1=CN(c2ncnc3[nH]cnc23)CCS1 | A549/ATCC |  |  | lung cancer cell line |  | CC50 | > 200000 nM |
| C/C=C(/C)C(=O)O[C@H]1C(C)=C2[C@H]([C@@H]1OC(=O)CCCCCCC)[C@@](C)(OC(C)=O)C[C@H](OC(=O)CCC)[C@@]1(O)[C@H]2OC(=O)[C@@]1(C)O | HEK293T | RNA-seq, refers to: CEBPB mRNA |  | 10 µM, 6 h | relative to: vehicle | log2 fold change | 2.41 |
| CC[C@H](C)[C@H](NC(=O)[C@H](Cc1ccccc1)NC(=O)[C@H](CCC(=O)O)NC(=O)[C@H](CCCNC(=N)N)NC(=O)[C@H](C)NC(=O)[C@H](C)NC(=O)[C@H](CCC(N)=O)NC(=O)[C@H](CCC(=O)O)NC(=O)[C@H](CCC(=O)O)NC(=O)[C@H](CC(C)C)NC(=O)[C@H](Cc1ccc(O)cc1)NC(=O)[C@H](CO)NC(=O)[C@H](CO)NC(=O)[C@@H](NC(=O)[C@H](CC(=O)O)NC(=O)[C@H](CO)NC(=O)[C@@H](NC(=O)[C@H](Cc1ccccc1)NC(=O)[C@@H](NC(=O)CNC(=O)[C@H](CCC(=O)O)NC(=O)[C@H](C)NC(=O)CCc1c[nH]cn1)[C@@H](C)O)[C@@H](C)O)C(C)C)C(=O)N[C@@H](C)C(=O)N[C@@H](Cc1c[nH]c2ccccc12)C(=O)N[C@@H](CC(C)C)C(=O)N[C@H](C(=O)N[C@@H](CCCNC(=N)N)C(=O)NCC(=O)N[C@@H](CCCNC(=N)N)C(=O)N[C@@H](CCCCNC(=O)COCCOCCNC(=O)COCCOCCNC(=O)CC[C@H](NC(=O)CCCCCCCCCCCCCCCCC(=O)O)C(=O)O)C(=O)NCC(=O)NCC(=O)N[C@@H](CO)C(=O)N[C@@H](CCCCNc1c(NCCCCCN(O)C(=O)CCC(=O)NCCCCCN(O)C(=O)CCC(=O)NCCCCCN(O)C(C)=O)c(=O)c1=O)C(=O)O)C(C)C [zirconium-89 labelled] |  |  | rat, kidney | iv, 3 nmol/kg, 4 h, ex vivo |  | tissue uptake | 4.75 %ID/g |
| CC(c1ccccc1)(c1ccc(O)cc1)c1ccc(O)cc1 | HepG2 spheroids | Hoechst flow cytometry |  | 0.1 µM, 24 h |  | G1 phase cells | 73.6 ± 4.83% |
| COc1c(CCC[P+](c2ccccc2)(c2ccccc2)c2ccccc2)cc2c(c1OC)OCO2.[I-] | RPMI-8226 | SRB |  |  |  | LC50 | > -4 log M |
| CN1CCN(C2(CNC3CCN(c4cccc(-c5cc6cc(F)ccc6[nH]5)c4)CC3)CCC2)CC1 | SF-539 |  |  |  |  | CC50 | 5880 nM |
| Nc1ncnc2c1ncn2[C@@H]1O[C@@H]2COP(=O)(O)O[C@H]3[C@@H](O)[C@H](n4cnc5c(=O)[nH]cnc54)O[C@@H]3COP(=O)(O)O[C@H]2[C@H]1O | HFF-1 | RNA sequencing, refers to: Reactome OAS antiviral response |  | upregulated pathways | relative to: mock | fold enrichment | 31.6 |
| CC(C)C[C@@H]1NC(=O)[C@H](CC(C)C)NC(=O)[C@H](Cc2c[nH]c3ccccc23)NC(=O)[C@H](CO)NC(=O)[C@H](Cc2c[nH]c3ccccc23)NC(=O)[C@@H]2CCCN2C(=O)[C@H](CC(C)C)NC(=O)[C@H](Cc2c[nH]cn2)NC(=O)[C@@H]2CCCN2C(=O)[C@H](CC(N)=O)NC(=O)[C@H](C)NC(=O)[C@H](Cc2ccc(O)cc2)NC(=O)[C@H](CS)NC(=O)[C@H](CCCCNC(=O)CN2CCN(CC(=O)O)CCN(CC(=O)O)CCN(CC(=O)O)CC2)NC1=O [lutetium-177 labelled] |  |  | Balb/c mouse, female, 4T1 tumour, spleen | intravenous, 3.7 MBq, 1 h |  | tissue uptake | 0.11 ± 0.09 %ID |
| C[C@]12CC[C@H](O)C[C@H]1CC[C@@H]1[C@@H]2CC[C@]2(C)[C@@H](c3ccc(=O)oc3)CC[C@]12O | MCF7 | luciferase |  | 10 nM, unit not given | relative to: untreated | ERE reporter activity | 1.75 and 1.25 and 1.34 |
